Measurements collected from several papers.
UniProt P10635, sequence (whole entry, looked up): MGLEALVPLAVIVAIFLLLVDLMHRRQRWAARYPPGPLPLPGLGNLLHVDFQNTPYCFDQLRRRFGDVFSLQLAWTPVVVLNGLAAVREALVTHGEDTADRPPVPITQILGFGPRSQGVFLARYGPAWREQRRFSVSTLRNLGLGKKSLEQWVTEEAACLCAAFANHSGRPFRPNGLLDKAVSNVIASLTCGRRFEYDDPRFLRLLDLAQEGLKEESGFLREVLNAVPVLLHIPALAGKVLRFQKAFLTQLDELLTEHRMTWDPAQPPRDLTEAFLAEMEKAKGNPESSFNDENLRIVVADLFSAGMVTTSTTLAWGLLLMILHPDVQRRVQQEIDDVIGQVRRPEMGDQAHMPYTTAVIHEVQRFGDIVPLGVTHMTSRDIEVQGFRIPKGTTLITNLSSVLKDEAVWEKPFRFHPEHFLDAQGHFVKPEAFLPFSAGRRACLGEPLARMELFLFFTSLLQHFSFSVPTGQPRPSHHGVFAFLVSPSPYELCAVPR
UniProt Q05397, sequence (whole entry, looked up): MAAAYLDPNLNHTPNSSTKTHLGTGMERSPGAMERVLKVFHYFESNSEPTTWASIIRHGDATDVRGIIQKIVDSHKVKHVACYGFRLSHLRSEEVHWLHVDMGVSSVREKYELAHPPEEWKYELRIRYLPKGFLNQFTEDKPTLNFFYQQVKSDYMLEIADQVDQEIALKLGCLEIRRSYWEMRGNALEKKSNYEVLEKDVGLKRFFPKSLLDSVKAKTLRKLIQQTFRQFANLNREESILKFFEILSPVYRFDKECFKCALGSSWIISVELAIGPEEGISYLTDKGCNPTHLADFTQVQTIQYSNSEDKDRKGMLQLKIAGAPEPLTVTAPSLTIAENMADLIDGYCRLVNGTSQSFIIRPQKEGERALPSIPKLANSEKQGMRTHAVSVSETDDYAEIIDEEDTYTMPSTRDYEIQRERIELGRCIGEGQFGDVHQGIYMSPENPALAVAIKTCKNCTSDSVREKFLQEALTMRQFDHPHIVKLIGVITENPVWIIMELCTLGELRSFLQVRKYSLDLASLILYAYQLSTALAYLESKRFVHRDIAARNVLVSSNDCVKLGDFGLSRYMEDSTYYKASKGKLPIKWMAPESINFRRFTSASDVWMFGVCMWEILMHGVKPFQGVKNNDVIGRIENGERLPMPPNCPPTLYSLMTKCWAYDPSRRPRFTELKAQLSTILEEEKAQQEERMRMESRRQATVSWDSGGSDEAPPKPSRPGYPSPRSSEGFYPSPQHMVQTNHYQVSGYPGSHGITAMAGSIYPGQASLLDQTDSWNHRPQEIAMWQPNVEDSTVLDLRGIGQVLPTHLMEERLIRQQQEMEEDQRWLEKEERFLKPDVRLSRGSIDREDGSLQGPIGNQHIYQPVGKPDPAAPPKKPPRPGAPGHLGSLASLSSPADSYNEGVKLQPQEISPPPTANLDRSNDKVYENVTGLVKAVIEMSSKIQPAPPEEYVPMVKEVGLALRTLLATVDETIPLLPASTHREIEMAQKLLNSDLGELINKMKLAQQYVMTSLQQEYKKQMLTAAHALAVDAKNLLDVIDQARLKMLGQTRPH

Cc1ncsc1-c1ccc(C(C)NC(=O)C2CC(O)CN2C(=O)C(NC(=O)CCCCCCCCCCN2CCCC(Nc3ncc(Cl)c(Nc4ccccc4S(=O)(=O)C(C)C)n3)C2)C(C)(C)C)cc1 (stereo not shown): “log2 fold change” -1.19 (22Rv1; RNA-seq, refers to: THAP7 mRNA; concentration not given; baseline: DMSO).
The colony count of CO[C@@H]1[C@@H](OC(N)=O)[C@@H](O)[C@H](Oc2ccc3c(O)c(NC(=O)c4ccc(O)c(CC=C(C)C)c4)c(=O)oc3c2C)OC1(C)C is reported as 0.1 (DLD-1 BRCA2-/-; 200 µM, replicate 2).
Cn1ncc2cc(-c3cncc(Cl)c3N3CCC4(CCNC4=O)CC3)ccc21: “fold change in expression” -2.55 (LS174T; microarray, refers to: DAGLA; concentration not given, 24 h, gene set DGL-alpha; baseline: untreated cells).
CN1CCCNC(=O)c2cccc(c2)C(=O)NCCCN(C)CCCNc2cccc3c2C(=O)c2cccc(c2C3=O)NCCC1: “log2 fold change” -0.57 (SAS; RNA-Seq, refers to: MAPK9 mRNA; 1 µM, 6 h; baseline: untreated cells).
Nc1ncc(-c2cc(-c3cnn(CC(F)(F)F)c3)ncc2F)nc1C(=O)NC1CNCC(F)C1 (stereo not shown) gave a remaining binding of 100% (MAP3K3; KINOMEscan; 1 µM; baseline: DMSO control).
With CCN(CC)CC(=O)Nc1cccc(-n2cc(-c3ccc4ccc(-c5cn(-c6cccc(NC(=O)CN(CC)CC)c6)nn5)cc4c3)nn2)c1 the fold regulation was -1.27 (RCC4; PCR angiogenesis array, refers to: PGF; 5 x IC50, 2 h, normoxia; baseline: untreated).
For Fc1cncc(-c2ccc3[nH]c4ncnc(N[C@H]5CC[C@H](N6CCOCC6)CC5)c4c3c2)c1, “STAT3 phosphorylation and IL-6 secretion” read “decreased” (TMD8; concentration not given).
The EC50 of CC(C)n1nc(C(F)F)cc1C(=O)Nc1ccc([C@H]2[C@@H](O)CCCc3cncn32)c(-c2ccccc2)c1 is reported as 0.0482 µM (BRD4-HiBiT cells; BRD4 degradation rescue, inhibitor; 24 h, 50% degradation rescued, with: dBET6 500 nM).
CCN(C(=O)c1cc(F)ccc1Oc1nncnc1N1CCC2(C1)CN([C@H](CCCN(C)CCOC)C(C)C)C2)C(C)C has a GI50 of over 10 µM (UO-31; cell growth or viability; 72 h).
The IC50 of CC(C)c1ccc(N(C)c2ccc3c(c2)OCC[C@H]3CNc2cnccc2C(=O)O)cc1 is reported as at least 10 µM (T24; cell growth or viability, ATP luminescence; 7 days).
The colony survival of COc1ccccc1-c1ccncc1C(=O)Nc1nnc(OCc2ccc(Cl)cc2)s1 is reported as 94.8% (MDA-MB-231; 0.1875 µM, mean of 3 replicates; baseline: untreated).
With CNS(=O)(=O)Nc1nccc(Cc2c(C)c3ccc(Oc4ncccc4F)cc3oc2=O)c1F the IC50 was over 1 µM (BC-3; cell viability; 7 days).
For C=CC(=O)Nc1cccc(Cn2ncc3cnc(Nc4cnn(CCOC)c4)nc32)c1, “percent of control” read 100% (NEK4 human; binding, KINOMEscan; 100 nM; lower = stronger binding).
The remaining activity of CNC(=O)C1CCCN(C(=O)C2CC3CCC2N3C(=O)[C@@H]2C[C@@H](O)CN2C(=O)NCc2cccc(Cl)c2F)C1 (mixture of isomers) is reported as 101% (Cytochrome P450 2D6 (CYP2D6, Homo sapiens, UniProt P10635); enzyme activity, inhibitor, time-dependent inhibition; 0.0686 µM, preincubated without NADPH; baseline: negative control).
The IC50 of Cc1nn(-c2cccc(N)c2)c(=O)c2cnc(Nc3ccc(N4CCNCC4)cc3)nc12 is reported as over 10 µM (Focal adhesion kinase 1 (PTK2, Homo sapiens, UniProt Q05397); kinase activity, inhibitor, SelectScreen kinase profiling).
Under “log2 fold change”, COC1CN([C@H]2CC[C@H]([C@@]3(C)Oc4c(Cl)cc(C(=O)NCc5c(SC)cc(C)[nH]c5=O)c(C)c4O3)CC2)C1 is recorded as 0.112 (RNA-seq, refers to: NATD1 mouse homolog; mouse, HT-1376 xenograft, whole blood; dose not given; baseline: vehicle).

Excerpt of the above:
The remaining activity of CNC(=O)C1CCCN(C(=O)C2CC3CCC2N3C(=O)[C@@H]2C[C@@H](O)CN2C(=O)NCc2cccc(Cl)c2F)C1 (mixture of isomers) is reported as 101% (Cytochrome P450 2D6 (CYP2D6, Homo sapiens, UniProt P10635); enzyme activity, inhibitor, time-dependent inhibition; 0.0686 µM, preincubated without NADPH; baseline: negative control).
